# Experimental data gathered from unrelated publications.
# Compare with care: the assays were run in different laboratories. Numbers after ± are the reported error.
# ALB: Albumin (ALB, Bos taurus, UniProt P02769)
# Sequence of UniProt P02769 (whole entry, looked up): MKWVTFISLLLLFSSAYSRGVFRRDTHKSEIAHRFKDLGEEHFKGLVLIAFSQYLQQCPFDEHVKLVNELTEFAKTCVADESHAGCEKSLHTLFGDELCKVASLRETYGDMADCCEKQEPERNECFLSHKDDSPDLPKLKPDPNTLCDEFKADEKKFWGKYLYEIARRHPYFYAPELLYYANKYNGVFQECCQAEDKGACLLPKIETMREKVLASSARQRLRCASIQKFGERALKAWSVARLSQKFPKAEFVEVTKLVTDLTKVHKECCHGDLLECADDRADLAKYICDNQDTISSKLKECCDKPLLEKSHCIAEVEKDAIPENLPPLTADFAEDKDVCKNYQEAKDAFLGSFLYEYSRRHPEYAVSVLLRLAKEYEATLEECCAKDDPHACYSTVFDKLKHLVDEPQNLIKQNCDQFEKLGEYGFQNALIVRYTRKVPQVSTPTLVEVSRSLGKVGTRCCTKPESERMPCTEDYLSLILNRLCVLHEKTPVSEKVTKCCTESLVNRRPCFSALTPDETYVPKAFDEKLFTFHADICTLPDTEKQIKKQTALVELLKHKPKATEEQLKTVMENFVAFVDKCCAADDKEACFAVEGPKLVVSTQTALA
# Beta-lactamase CTX-M-14: Beta-lactamase CTX-M-14 (Escherichia coli, UniProt Q9L5C7)
# Sequence of UniProt O43189 (whole entry, unmodified, looked up): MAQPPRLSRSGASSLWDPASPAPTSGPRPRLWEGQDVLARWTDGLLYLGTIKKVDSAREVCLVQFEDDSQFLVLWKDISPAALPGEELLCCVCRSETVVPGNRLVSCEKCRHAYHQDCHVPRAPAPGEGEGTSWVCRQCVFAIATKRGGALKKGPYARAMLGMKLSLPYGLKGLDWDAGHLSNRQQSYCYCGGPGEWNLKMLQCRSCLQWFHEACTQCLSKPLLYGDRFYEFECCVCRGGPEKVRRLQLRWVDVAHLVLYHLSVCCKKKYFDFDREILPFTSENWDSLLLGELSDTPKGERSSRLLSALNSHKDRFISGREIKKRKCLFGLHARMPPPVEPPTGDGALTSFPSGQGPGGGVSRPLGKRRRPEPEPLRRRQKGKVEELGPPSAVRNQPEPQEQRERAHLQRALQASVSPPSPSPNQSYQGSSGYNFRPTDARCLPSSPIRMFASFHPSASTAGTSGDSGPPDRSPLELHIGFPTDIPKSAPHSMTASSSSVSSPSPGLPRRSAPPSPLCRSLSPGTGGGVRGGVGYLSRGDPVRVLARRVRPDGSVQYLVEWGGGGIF
# Sequence of UniProt P29994 (whole entry, unmodified, looked up): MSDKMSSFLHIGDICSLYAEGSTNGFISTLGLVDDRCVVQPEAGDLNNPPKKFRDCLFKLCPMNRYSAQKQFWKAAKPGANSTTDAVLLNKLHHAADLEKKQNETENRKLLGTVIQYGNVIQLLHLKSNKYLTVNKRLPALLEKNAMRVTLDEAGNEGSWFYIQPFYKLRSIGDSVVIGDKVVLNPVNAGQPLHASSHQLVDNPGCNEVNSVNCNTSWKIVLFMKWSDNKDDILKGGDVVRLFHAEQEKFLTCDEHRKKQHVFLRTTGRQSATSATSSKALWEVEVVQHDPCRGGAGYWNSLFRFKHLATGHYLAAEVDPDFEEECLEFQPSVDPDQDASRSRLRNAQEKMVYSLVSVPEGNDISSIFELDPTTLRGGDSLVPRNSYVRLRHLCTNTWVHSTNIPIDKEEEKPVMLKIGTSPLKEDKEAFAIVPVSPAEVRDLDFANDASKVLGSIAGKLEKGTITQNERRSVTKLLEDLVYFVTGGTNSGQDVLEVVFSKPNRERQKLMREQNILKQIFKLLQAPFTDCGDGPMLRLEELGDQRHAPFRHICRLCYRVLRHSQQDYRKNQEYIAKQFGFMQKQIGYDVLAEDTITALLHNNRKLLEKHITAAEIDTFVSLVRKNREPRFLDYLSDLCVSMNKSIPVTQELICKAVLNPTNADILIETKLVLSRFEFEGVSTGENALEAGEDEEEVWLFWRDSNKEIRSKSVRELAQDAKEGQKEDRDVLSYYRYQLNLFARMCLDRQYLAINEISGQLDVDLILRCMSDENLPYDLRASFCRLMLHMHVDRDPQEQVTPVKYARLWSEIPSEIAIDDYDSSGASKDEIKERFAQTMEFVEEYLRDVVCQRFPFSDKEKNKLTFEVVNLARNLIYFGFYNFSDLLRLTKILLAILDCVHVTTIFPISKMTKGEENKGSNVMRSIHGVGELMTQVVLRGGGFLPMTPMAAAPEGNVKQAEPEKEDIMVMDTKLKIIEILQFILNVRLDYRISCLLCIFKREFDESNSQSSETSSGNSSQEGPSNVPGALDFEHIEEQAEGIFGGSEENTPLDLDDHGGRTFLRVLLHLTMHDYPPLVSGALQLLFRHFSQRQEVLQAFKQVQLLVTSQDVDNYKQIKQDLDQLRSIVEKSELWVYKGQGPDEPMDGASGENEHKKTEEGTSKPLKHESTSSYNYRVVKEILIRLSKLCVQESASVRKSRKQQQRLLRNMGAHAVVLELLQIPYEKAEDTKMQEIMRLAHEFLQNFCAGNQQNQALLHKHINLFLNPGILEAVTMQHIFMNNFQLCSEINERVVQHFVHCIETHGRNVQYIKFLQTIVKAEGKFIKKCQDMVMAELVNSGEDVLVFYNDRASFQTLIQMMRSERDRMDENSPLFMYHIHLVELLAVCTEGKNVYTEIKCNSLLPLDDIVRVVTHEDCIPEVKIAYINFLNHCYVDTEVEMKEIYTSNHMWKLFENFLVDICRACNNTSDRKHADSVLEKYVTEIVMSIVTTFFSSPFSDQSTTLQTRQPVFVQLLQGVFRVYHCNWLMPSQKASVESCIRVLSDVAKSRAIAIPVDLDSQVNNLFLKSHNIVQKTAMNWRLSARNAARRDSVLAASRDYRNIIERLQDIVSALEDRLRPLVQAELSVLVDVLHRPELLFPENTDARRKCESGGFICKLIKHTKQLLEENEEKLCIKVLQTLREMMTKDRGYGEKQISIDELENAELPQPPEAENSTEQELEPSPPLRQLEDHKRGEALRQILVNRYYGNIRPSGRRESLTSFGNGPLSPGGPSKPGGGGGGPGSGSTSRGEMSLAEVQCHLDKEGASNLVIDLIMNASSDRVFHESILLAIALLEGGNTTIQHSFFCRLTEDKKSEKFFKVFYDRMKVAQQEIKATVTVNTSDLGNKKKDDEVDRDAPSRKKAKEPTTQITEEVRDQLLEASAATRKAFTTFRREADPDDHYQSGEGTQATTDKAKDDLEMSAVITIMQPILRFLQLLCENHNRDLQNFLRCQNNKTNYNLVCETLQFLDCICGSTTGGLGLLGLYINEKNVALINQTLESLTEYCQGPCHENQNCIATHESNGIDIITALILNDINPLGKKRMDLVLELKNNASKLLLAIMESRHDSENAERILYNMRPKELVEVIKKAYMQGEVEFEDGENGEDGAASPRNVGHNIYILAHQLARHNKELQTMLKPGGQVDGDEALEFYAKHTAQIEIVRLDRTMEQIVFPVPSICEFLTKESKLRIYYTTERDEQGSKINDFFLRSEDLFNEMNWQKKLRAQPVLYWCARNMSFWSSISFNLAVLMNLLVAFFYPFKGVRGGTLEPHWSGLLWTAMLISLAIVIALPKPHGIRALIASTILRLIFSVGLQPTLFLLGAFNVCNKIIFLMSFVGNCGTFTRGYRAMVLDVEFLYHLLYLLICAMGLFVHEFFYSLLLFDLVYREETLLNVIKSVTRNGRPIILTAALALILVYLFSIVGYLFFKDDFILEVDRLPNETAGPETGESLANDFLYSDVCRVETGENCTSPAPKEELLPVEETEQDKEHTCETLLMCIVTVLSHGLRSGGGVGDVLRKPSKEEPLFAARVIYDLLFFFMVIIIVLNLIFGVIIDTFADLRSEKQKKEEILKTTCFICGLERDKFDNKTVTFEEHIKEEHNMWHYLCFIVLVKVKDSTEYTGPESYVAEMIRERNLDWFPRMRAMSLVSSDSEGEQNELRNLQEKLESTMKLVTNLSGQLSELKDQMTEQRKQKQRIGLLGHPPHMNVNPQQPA
# Sequence of UniProt P05852 (whole entry, looked up): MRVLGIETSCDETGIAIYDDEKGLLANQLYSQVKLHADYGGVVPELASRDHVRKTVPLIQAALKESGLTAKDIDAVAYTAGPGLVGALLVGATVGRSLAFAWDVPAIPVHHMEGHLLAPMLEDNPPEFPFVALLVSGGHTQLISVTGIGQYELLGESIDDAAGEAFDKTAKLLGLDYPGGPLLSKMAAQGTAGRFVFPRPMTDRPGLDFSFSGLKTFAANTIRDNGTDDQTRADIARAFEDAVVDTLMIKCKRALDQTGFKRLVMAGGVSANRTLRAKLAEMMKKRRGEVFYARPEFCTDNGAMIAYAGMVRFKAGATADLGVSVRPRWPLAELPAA
# Sequence of UniProt O43570 (whole entry, looked up): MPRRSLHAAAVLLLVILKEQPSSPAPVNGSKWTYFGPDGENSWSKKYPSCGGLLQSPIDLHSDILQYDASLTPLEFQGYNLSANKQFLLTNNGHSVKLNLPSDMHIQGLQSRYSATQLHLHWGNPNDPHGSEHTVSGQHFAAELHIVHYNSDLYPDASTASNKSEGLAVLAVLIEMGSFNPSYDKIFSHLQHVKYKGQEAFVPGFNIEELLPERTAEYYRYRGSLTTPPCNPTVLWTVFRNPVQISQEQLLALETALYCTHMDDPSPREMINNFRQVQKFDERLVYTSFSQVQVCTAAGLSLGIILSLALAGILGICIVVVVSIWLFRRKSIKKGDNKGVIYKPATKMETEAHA
# Sequence of UniProt Q9EPX4 (whole entry, looked up): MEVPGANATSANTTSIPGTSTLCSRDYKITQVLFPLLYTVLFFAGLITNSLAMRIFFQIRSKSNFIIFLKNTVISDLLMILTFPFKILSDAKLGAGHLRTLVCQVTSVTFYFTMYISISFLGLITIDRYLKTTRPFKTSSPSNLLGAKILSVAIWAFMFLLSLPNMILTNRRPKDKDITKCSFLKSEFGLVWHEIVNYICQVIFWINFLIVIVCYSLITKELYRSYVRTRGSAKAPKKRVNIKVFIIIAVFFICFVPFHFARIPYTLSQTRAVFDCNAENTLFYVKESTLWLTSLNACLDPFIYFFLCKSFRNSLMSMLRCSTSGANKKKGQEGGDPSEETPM
SMILES,target,test,test system,conditions,Kd [µM]
CCN(CC)c1ccc(C=NNC(N)=S)cc1Br,"Catalase (CAT, Homo sapiens, UniProt P04040)",binding,,,31.4
CC(=O)NCCN(CCC(=O)NCCN(CCC(=O)NCCN(CCC(=O)NCCC(N)=O)C(=O)[C@@H](N)CCCNC(=N)N)C(=O)[C@@H](N)Cc1ccccc1)C(=O)[C@@H](N)Cc1ccccc1,HIV-1 TAR RNA (18-44),fluorescence,,"25 °C, with: 100-fold excess natural tRNA",0.83 ± 0.19
O=P(O)(O)O[C@@H]1[C@@H](O)[C@@H](O[C@@H]2COC[C@@H]2OP(=O)(O)O)O[C@H](CO)[C@H]1OP(=O)(O)O,"Inositol 1,4,5-trisphosphate-gated calcium channel ITPR1, N-terminal region (Itpr1, Rattus norvegicus, UniProt P29994, del318-332)",[3H]IP3 competition binding,,N-terminal fragment,0.00119
CCCCCCCC(=O)N[C@@H](CCN)C(=O)N[C@H](C(=O)N[C@@H](CCN)C(=O)N[C@H]1CCNC(=O)[C@H]([C@@H](C)O)NC(=O)[C@H](CCN)NC(=O)[C@H](CCN)NC(=O)[C@H](CC(C)C)NC(=O)[C@@H](Cc2ccccc2)NC(=O)[C@H](CC(N)=O)NC1=O)[C@@H](C)O,anti-polymyxin B mouse IgM mAb,SPR,,25 °C,> 25
CC(=O)N[C@@H](CCCCN)C(=O)N[C@@H](CCCCN)C(=O)N[C@@H](CCCNC(=N)N)C(=O)N[C@@H](Cc1ccc(O)cc1)C(=O)N[C@@H](CO)C(=O)N[C@@H](CCCNC(=N)N)C(=O)N[C@@]1(C)CCCC=CCCC[C@@](C)(C(=O)N[C@@H](Cc2ccccc2)C(N)=O)NC(=O)[C@H](CC(C)C)NC(=O)[C@H](CC(C)C)NC(=O)[C@H](Cc2ccccc2)NC1=O,"Eukaryotic translation initiation factor 4E (EIF4E, Homo sapiens, UniProt P06730)","ligand displacement, FP",,pH 7.4,0.558
O=C1c2sc(-c3ccc(N4CCC(F)C4)nc3F)nc2CCN1c1cccnc1 (centres unmarked),"TAR DNA-binding protein 43, aggregated (TARDBP, Homo sapiens, UniProt Q13148)",saturation autoradiography,FTLD-TDP type A brain sections,,0.025 ± 0.025
CCCCCCCCCCCCCC(=O)Nc1ccccc1SSc1ccccc1NC(=O)CCCCCCCCCCCCC,ALB,"binding, fluorescence quenching",,"pH 7.4, 308 K",8.77
CCCCCCCC(=O)N[C@@H](CCN)C(=O)N[C@H](C(=O)N[C@@H](CCN)C(=O)N[C@H]1CCNC(=O)[C@H]([C@@H](C)O)NC(=O)[C@H]([C@@H](C)O)NC(=O)[C@H](CCN)NC(=O)[C@H](CC(C)C)NC(=O)[C@@H](Cc2ccccc2)NC(=O)[C@H](CCN)NC1=O)[C@@H](C)O,anti-polymyxin B mouse IgM mAb,SPR,,25 °C,> 25
CC1(C)CC(=O)C2=C(C1)Oc1ncnc(Nc3cccc(Cl)c3)c1C2c1ccccc1F (centres unmarked),ALB,absorption titration,,"pH 7.2, 25 °C",2.72
CC(=O)NCCN(CCC(=O)NCCN(CCC(=O)NCCN(CCC(=O)NCCC(N)=O)C(=O)[C@@H](N)CCCCN)C(=O)[C@@H](N)Cc1ccccc1)C(=O)[C@@H](N)Cc1ccccc1,HIV-1 TAR RNA (18-44),fluorescence,,"25 °C, with: 100-fold excess 15-mer duplex DNA",0.9 ± 0.3
CCCCCCCCCCCC(=O)Nc1ccccc1SSc1ccccc1NC(=O)CCCCCCCCCCC,ALB,"binding, fluorescence quenching",,"pH 7.4, 298 K, with: warfarin (site I marker)",0.0971
O=C(Nc1cccc(-c2nn[nH]n2)c1)c1cc(-c2cncnc2)cc(C(F)(F)F)c1,Beta-lactamase CTX-M-14,surface plasmon resonance,,25 °C,42.1 ± 0.9
CCCS(=O)(=O)N1CCN(Cc2ccc(NC(=O)c3ccc(-c4cc(NC(=O)C5CC5)ccc4OC(F)(F)F)cc3)cc2)CC1,"Genome polyprotein, NS5A domain 1 (Hepatitis C virus genotype 1b, UniProt Q9WMX2)",microscale thermophoresis,,NS5A residues 33-202,0.03 ± 0.011
CCc1nc2cc3ccccc3cc2cc1C(=O)N1CCC[C@H]1C(=O)N[C@@H](CCC/C=C/CCC[C@H](NC(=O)[C@@H]1CCCN1C(=O)c1cc2cc3ccccc3cc2nc1CC)C(=O)N[C@@H](CCCCN)C(=O)NCCCN)C(=O)N[C@@H](CCCCN)C(=O)NCCCN,(CUG)2 RNA,SPR,,pH 7.4,0.668
CC(C)C[C@@H]1NC(=O)[C@@H](Cc2ccccc2)NC(=O)[C@H](CCN)NC(=O)[C@@H](NC(=O)[C@H](CCN)NC(=O)[C@@H](NC(=O)[C@H](CCN)NC(=O)CNS(=O)(=O)c2cccc3c(N(C)C)cccc23)[C@@H](C)O)CCNC(=O)[C@H]([C@@H](C)O)NC(=O)[C@H](CCN)NC(=O)[C@H](CCN)NC1=O,anti-polymyxin B mouse IgM mAb,SPR,,25 °C,5.5
O=C(Nc1cccc(-c2nn[nH]n2)c1)c1cc(-c2nn[nH]n2)cc(C(F)(F)F)c1,Beta-lactamase CTX-M-14,surface plasmon resonance,,25 °C,11.9 ± 0.1
CC(=O)NCCN(CCC(=O)NCCN(CCC(=O)NCCN(CCC(=O)NCCC(N)=O)C(=O)[C@@H](N)Cc1ccccc1)C(=O)[C@@H](N)Cc1ccccc1)C(=O)[C@@H](N)CCCNC(=N)N,HIV-1 TAR RNA (18-44),fluorescence,,"25 °C, with: 100-fold excess 15-mer duplex DNA",0.7 ± 0.05
CC(C)C[C@H](NC(=O)[C@@H]1CCCN1C(=O)[C@H](CCCCN)NC(=O)[C@H](CCCCN(CCc1ccccc1)C(C)C)NC(=O)[C@@H](NC(=O)CNC(=O)CN)C(C)C)C(=O)N[C@@H](CCCNC(=N)N)C(N)=O,"PHD finger protein 1, Tudor domain F65A (Homo sapiens, UniProt O43189, F65A)","binding, isothermal titration calorimetry",,Tudor domain,13.7 ± 1.3
Cc1ccc2oc(=O)c(-c3nc4cnccc4[nH]3)cc2c1,"Bifunctional arginine demethylase and lysyl-hydroxylase JMJD6 (Homo sapiens, UniProt Q6NYC1)","binding, ITC",,,3.83
CCCCCCCCCCCCCCCC(=O)Nc1ccccc1SSc1ccccc1NC(=O)CCCCCCCCCCCCCCC,ALB,"binding, fluorescence quenching",,"pH 7.4, 313 K",3410
CC(C)C[C@H](NC(=O)[C@@H](NC(=O)[C@@H]1CCCN1C(=O)[C@@H]1CCCN1C(=O)[C@@H]1CCCN1C(=O)[C@H](CC(N)=O)NC(=O)[C@@H]1CCCN1C(=O)[C@H](C)NC(=O)[C@@H]1CCCN1C(=O)CNC(=O)[C@H](CCCCN)NC(=O)[C@@H](N)[C@@H](C)O)C(C)C)C(=O)N[C@@H](CCCCN)C(=O)N[C@H](C(=O)O)C(C)C,"PACSIN1 SH3 domain, chicken",binding,,pH 7,51.6 ± 7.6
CC(C)C[C@H](NC(=O)[C@@H](NC(=O)[C@H](CC(C)C)NC(=O)[C@H](CS)NC(=O)CNC(=O)[C@H](CO)NC(=O)[C@H](CCCCN)NC(=O)[C@H](CCCCN)NC(=O)[C@H](CCCCN)NC(=O)CNC(=O)[C@H](CCCNC(=N)N)NC(=O)[C@H](CCCNC(=N)N)NC(=O)[C@H](C)NC(=O)c1ccc2c(c1)C(=O)OC21c2ccc(O)cc2Oc2cc(O)ccc21)C(C)C)C(=O)O,"Rap1 GTPase-GDP dissociation stimulator 1, SmgGDS-607 isoform (RAP1GDS1, Homo sapiens, UniProt P52306)","binding, fluorescence anisotropy",,,1.9 ± 0.3
C[C@@H](O)[C@H](NC(=O)CP(=O)(O)OC[C@H]1O[C@@H](n2cnc3c(N)ncnc32)[C@H](O)[C@@H]1O)C(=O)O,"tsaD, with TsaB (Escherichia coli, UniProt P05852)",microscale thermophoresis,,with: 0.5 µM unlabelled TsaB,3.4
N#Cc1cc(C(=O)OCC[18F])c(C(F)(F)F)nc1N1CCC(C(=O)NS(=O)(=O)c2ccc(Cl)s2)CC1,"P2Y purinoceptor 12 (P2ry12, Rattus norvegicus, UniProt Q9EPX4)","binding in cells, radioligand",,,0.00655
NS(=O)(=O)c1cc(C(=O)NCCCC(=O)O)c(NC2CCCCC2)cc1Cl,"Carbonic anhydrase 12 (CA12, Homo sapiens, UniProt O43570)","enzyme activity, inhibitor, stopped-flow",,pH 7.5,< 0.025
O=C(Nc1cccc(-c2nn[nH]n2)c1)c1cc(-c2cccnc2)cc(C(F)(F)F)c1,Beta-lactamase CTX-M-14,surface plasmon resonance,,25 °C,43.5 ± 0.9
CC(=O)NCCN(CC(=O)NCCN(CC(=O)NCCN(CC(=O)NCCC(N)=O)C(=O)C[C@@H](N)Cc1ccccc1)C(=O)C[C@@H](N)CCCNC(=N)N)C(=O)C[C@@H](N)CCCNC(=N)N,HIV-1 TAR RNA (18-44),fluorescence,,"25 °C, with: 100-fold excess 15-mer duplex DNA",0.32 ± 0.05
CCCCCCCC(=O)N[C@@H](CCN)C(=O)N[C@H](C(=O)N[C@@H](CCCCN)C(=O)N[C@H]1CCNC(=O)[C@H]([C@@H](C)O)NC(=O)[C@H](CCN)NC(=O)[C@H](CCN)NC(=O)[C@H](CC(C)C)NC(=O)[C@@H](Cc2ccccc2)NC(=O)[C@H](CCN)NC1=O)[C@@H](C)O,anti-polymyxin B mouse IgM mAb,SPR,,25 °C,13.1
CC(C)[C@H](NC(=O)CNC(=O)CNC(=O)[C@@H](NC(=O)[C@H](C)NC(=O)[C@@H]1CCCN1C(=O)[C@H](C)NC(=O)[C@@H](N)CO)[C@@H](C)O)C(=O)N[C@@H](CCCC[N+](C)(C)C)C(=O)N[C@@H](CCCCN)C(=O)N1CCC[C@H]1C(=O)N[C@@H](Cc1c[nH]cn1)C(=O)N[C@@H](CCCNC(=N)N)C(=O)N[C@@H](Cc1ccc(O)cc1)C(=O)N[C@@H](CCCNC(=N)N)C(=O)N1CCC[C@H]1C(=O)O,"PHD finger protein 1, Tudor domain E66K (Homo sapiens, UniProt O43189, E66K)","binding, isothermal titration calorimetry",,with: histone H3 peptide,22.8 ± 2
CC(=O)NCCN(CCC(=O)NCCN(CCC(=O)NCCN(CCC(=O)NCCC(N)=O)C(=O)[C@@H](N)Cc1ccccc1)C(=O)[C@@H](N)CCCNC(=N)N)C(=O)[C@@H](N)Cc1ccccc1,HIV-1 TAR RNA (18-44),fluorescence,,"25 °C, with: 100-fold excess natural tRNA",1.7 ± 0.44
O=C(Nc1cccc(-c2nn[nH]n2)c1)c1cc(-n2ccnn2)cc(C(F)(F)F)c1,Beta-lactamase CTX-M-14,surface plasmon resonance,,25 °C,32.3 ± 0.9
Cc1c2ccnc(C(=O)N[C@H](C)CN(C)C)c2cc2c3cc(OCCCN4CCN(C)CC4)ccc3n(C)c12,r(G4C2)8 RNA hairpin,"binding, microscale thermophoresis",,no K+,0.56 ± 0.16

# Excerpt of the above:
SMILES,target,test,test system,conditions,Kd [µM]
CC(=O)N[C@@H](CCCCN)C(=O)N[C@@H](CCCCN)C(=O)N[C@@H](CCCNC(=N)N)C(=O)N[C@@H](Cc1ccc(O)cc1)C(=O)N[C@@H](CO)C(=O)N[C@@H](CCCNC(=N)N)C(=O)N[C@@]1(C)CCCC=CCCC[C@@](C)(C(=O)N[C@@H](Cc2ccccc2)C(N)=O)NC(=O)[C@H](CC(C)C)NC(=O)[C@H](CC(C)C)NC(=O)[C@H](Cc2ccccc2)NC1=O,"Eukaryotic translation initiation factor 4E (EIF4E, Homo sapiens, UniProt P06730)","ligand displacement, FP",,pH 7.4,0.558
CCN(CC)c1ccc(C=NNC(N)=S)cc1Br,"Catalase (CAT, Homo sapiens, UniProt P04040)",binding,,,31.4
O=P(O)(O)O[C@@H]1[C@@H](O)[C@@H](O[C@@H]2COC[C@@H]2OP(=O)(O)O)O[C@H](CO)[C@H]1OP(=O)(O)O,"Inositol 1,4,5-trisphosphate-gated calcium channel ITPR1, N-terminal region (Itpr1, Rattus norvegicus, UniProt P29994, del318-332)",[3H]IP3 competition binding,,N-terminal fragment,0.00119
CC(C)C[C@@H]1NC(=O)[C@@H](Cc2ccccc2)NC(=O)[C@H](CCN)NC(=O)[C@@H](NC(=O)[C@H](CCN)NC(=O)[C@@H](NC(=O)[C@H](CCN)NC(=O)CNS(=O)(=O)c2cccc3c(N(C)C)cccc23)[C@@H](C)O)CCNC(=O)[C@H]([C@@H](C)O)NC(=O)[C@H](CCN)NC(=O)[C@H](CCN)NC1=O,anti-polymyxin B mouse IgM mAb,SPR,,25 °C,5.5
CC(=O)NCCN(CCC(=O)NCCN(CCC(=O)NCCN(CCC(=O)NCCC(N)=O)C(=O)[C@@H](N)CCCCN)C(=O)[C@@H](N)Cc1ccccc1)C(=O)[C@@H](N)Cc1ccccc1,HIV-1 TAR RNA (18-44),fluorescence,,"25 °C, with: 100-fold excess 15-mer duplex DNA",0.9 ± 0.3
